Measurements collected from several papers.
Values joined by “and” are separate records of one study, mostly repeats; a detail may differ. ± gives the spread as reported. Converted amounts (≈) assume the structure as drawn.

| Structure (SMILES) | test | system | setting | scale | quantity | result |
| --- | --- | --- | --- | --- | --- | --- |
| [2H]C([2H])(N)C([2H])([2H])NC(=O)c1cc(C2CC2)nc2c1cnn2C(C)C | – | female BALB/c mouse, plasma | intraperitoneal, 50 mg/kg, 30 min | – | concentration | 2610 ng/mL |
| COc1cccc(OC)c1-c1cc(C(=O)NC2(C(=O)O)C3CC4CC(C3)CC2C4)nn1-c1ccc(C(=O)N(C)CCCN(C)CCCN(C)C(=O)[C@H](CCCCNC(=O)[C@H](CC(C)C)NC(=O)C2OC2C(=O)O)NC(=O)CN2CCN(CC(=O)[O-])CCN(CC(=O)[O-])CCN(CC(=O)[O-])CC2)cc1C(C)C.[177Lu+3] (mixture of isomers) | – | mouse, HT-29 xenograft, lung | 72 h post injection | – | tissue uptake | 0.32 %ID/g |
| CN(O)C(=O)CCC(=O)NCCCN(CCCCN(CCCNC(=O)CCC(=O)N(C)O)C(=O)CCC(=O)N(C)O)C(=O)CCC(=O)N(C)O.[89Zr] | – | 0.9 % NaCl saline | 7 days, pH 4.5, 37 °C | – | intact compound | 95.9 ± 2.7% |
| C=C(NC(=O)c1csc(-c2nc3c(cc2O)-c2nc(cs2)C(=O)NC(C(C)O)C(=O)NC(=C(C)OC)c2nc(cs2)C(=O)NC2c4nc(cs4)C(=O)NC(COC(=O)c4c5c6c(cccc6n4O)COC(=O)C(OC4CC(C)(O)C(N(C)C)C(C)O4)C2OC5)c2nc-3cs2)n1)C(N)=O (stereo not drawn) | – | ICR mice, Streptococcus pneumoniae ATCC 49169 infected, immunocompromised, blood | intravenous, 8 mg/kg/day twice daily | – | Cmax | 318 ng/mL |
| CN(Cc1ccccc1)C(=O)CN1CCN(CC(=O)[O-])CCN(CC(=O)N(C)Cc2ccccc2)CC1.[18F-].[Sc+3] | – | mouse, brain | intravenous, 1 h | – | tracer uptake | 0.03 %ID/g |
| Cc1n[nH]c(C)c1CCCOc1cc(C(=O)NCCCCC(NC(=O)CN2CCN(CC(=O)[O-])CCN(CC(=O)[O-])CCN(CC(=O)[O-])CC2)C(=O)NCC2CCC(C(=O)NC(Cc3ccc4ccccc4c3)C(=O)NCCCCC(NC(=O)NC(CCC(=O)O)C(=O)O)C(=O)O)CC2)ccc1F.[68Ga+3] (stereo not drawn) | – | BALB/c mouse, blood | intravenous | – | elimination half-life | 55 min |
| CCCCN1C(=O)c2cccc3c(NCCN4CCOCC4)ccc(c23)C1=O | – | DMF | – | – | fluorescence lifetime | 10.3 ns |
| Cc1nn(-c2nc3c(F)cc(F)cc3s2)c(O)c1C(c1ccc(C(F)(F)F)cc1)c1c(C)nn(-c2nc3c(F)cc(F)cc3s2)c1O | – | ICR mouse, plasma | ip, 10 mg/kg | – | AUC(0-inf) per dose | 3030 kg·ng·h/mL/mg and 2760 kg·ng·h/mL/mg and 3180 kg·ng·h/mL/mg |
| O=C(O)c1cccc(CN2Cc3cccc(n3)CN(Cc3cccc(C(=O)O)n3)Cc3cccc(n3)C2)n1 | differential pulse voltammetry | – | – | relative to: Ag/AgCl | Mn(II)/Mn(III) half-wave potential | 0.904 V and 0.648 V |
| CN(C(=O)C(C)(C)c1cc(C(F)(F)F)cc(C(F)(F)F)c1)c1cnc(N2C[C@H]3COCCN3C[C@H]2CO)cc1-c1ccc(F)cc1CO | – | pooled human liver microsomes | pH 7.4, substrate depletion | – | Km | 0.136 µM |
| C=CC(=O)Nc1cc(Nc2nccc(-c3cn(C)c4ccccc34)n2)c(OC)cc1N(C)CCNC | – | human, plasma | 270 ng/mL, 2 h, room temperature, high QC level | – | remaining compound | 100% |
| N#C[C@@H]1CC(F)(F)CN1C(=O)CNC(=O)c1ccnc2ccc(OCCCN3CCN(C(=O)CCc4ccc5c(c4)CN4CCN(Cc6cc(CCC(=O)O)ccc6O)CC(=O)[O][Al-]([18F])([O]C(=O)C4)[O]5)CC3)cc12 (stereo partly drawn) | radio-TLC | CD-1 mice, plasma | intravenous, 60 min post-injection | – | radiochemical purity | 89.2 ± 4.5% |
| C=CC(=O)N1CC2C(=O)N(CCN(C)C)c3c(c4cc(Cl)c(-c5c(O)cccc5F)nc4n(-c4c(C)ccnc4C(C)C)c3=O)N2CC1C (stereo not drawn) | – | nude mouse, CSF | oral, 100 mg/kg, 8 h | – | concentration | 23.3 nM |
| CN(Cc1ccccc1)C(=O)CN1CCN(CC(=O)[O-])CCN(Cc2cccc(C(=O)[O-])n2)CC1.[177Lu+3] | – | mouse, lung | intravenous, 1 h | – | tracer uptake | 0.91 %ID/g |
| O=C(CCCCCCCCCCCCCCCCC(=O)Oc1c2n(cc(C(=O)NCc3c(F)cc(F)cc3F)c1=O)CC1OC3CCC(C3)N1C2=O)Oc1c2n(cc(C(=O)NCc3c(F)cc(F)cc3F)c1=O)CC1OC3CCC(C3)N1C2=O (stereo not drawn) | – | dog plasma | 1 µM, 24 h, 1% methanol | – | prodrug hydrolysed | 45% |
| O=C(Nc1cnccc1-c1ccc([18F])cc1)c1ccnc(NC(=O)C2CC2)c1 | – | mice, transgenic, GSK-3β, early-stage, liver | intravenous, dose not given, 120 min | – | SUV | 2.4 |
| O=c1c2ccccc2[se]n1CCCCCCn1[se]c2ccccc2c1=O | shake-flask, RP-HPLC | dichloromethane | 24 h, 25 °C | – | solubility | 3170 ± 160 µg/mL (≈ 6.63 mM) |
| Cc1cc(C)nc(NC(=S)N2CCN(Cc3ccc(C(F)(F)F)cc3)CC2)c1 | – | plasma | intraperitoneal, 30 mg/kg | – | MRT(0-inf) | 144 min |
| C/C(N)=N/C(=N\S(=O)(=O)c1ccc(C(F)(F)F)cc1)N1C[C@H](c2ccccc2)C(c2ccc(Cl)cc2)=N1 | – | C57BL/6 mouse, adipose tissue | intravenous, 10 mg/kg | – | AUC(0-inf) | 59700 ng·h/mL |
| COc1ccc2c(c1)C(C)(C)C(/C=C/C1=C(Oc3ccc(C(=O)NCCCCOc4cc(CN(Cc5ccccn5)Cc5ccccn5)cc(CN(Cc5ccccn5)Cc5ccccn5)c4)cc3)C(=C/C=C3/N(CCCCS(=O)(=O)[O-])c4ccc(OC)cc4C3(C)C)CCC1)=[N+]2CCCCS(=O)(=O)[O-].O=[N+]([O-])[O-].O=[N+]([O-])[O-].[99Tc+].[C-]#[O+].[C-]#[O+].[C-]#[O+].[Zn+2] | radio-TLC | mouse serum | 2 h, 37 °C | – | intact compound | 98.7% |
| Cc1ccc(CN2C(=O)/C(=N\c3ccc(Cl)cc3Br)c3ccccc32)cc1 | – | mouse, blood | 150 mg/kg | – | MCHC | 323 ± 3.67 g/L |
| COc1cccc(OC)c1-c1cc(C(=O)NC2(C(=O)O)C3CC4CC(C3)CC2C4)nn1-c1ccc(C(=O)N(C)CCOCCOCCN(C)C(=O)[C@H](CCCCNC(=O)[C@H](CC(C)C)NC(=O)C2OC2C(=O)O)NC(=O)CN2CCN(CC(=O)[O-])CCN(CC(=O)[O-])CCN(CC(=O)[O-])CC2)cc1C(C)C.[177Lu+3] (mixture of isomers) | – | HT-29 xenograft mouse, kidney | 168 h | relative to: initial uptake | renal retention | 17 ± 7% |
| O=C([O-])CN1CCN(CC(=O)[O-])CCN(Cc2cccc(C(=O)[O-])n2)CC1.[177Lu+3] | – | mouse, spleen | intravenous, 1 h | – | tracer uptake | 0.24 %ID/g |
| CC[C@H](C)[C@@H]1NC(=O)[C@H](Cc2ccc(O)cc2)NC(=O)CCCSC[C@@H](C(=O)N(CC(=O)N[C@@H](CC(C)C)C(=O)NCC(N)=O)Cc2ccc(F)cc2)NC(=O)[C@H](CC(N)=O)NC(=O)[C@H](CCC(N)=O)NC1=O | – | human | intranasal, 50 µg repeated doses | – | drug-related headache | 33% |
| CCCC[C@H](OC(C)=O)c1ccccc1C(=O)O | – | Sprague-Dawley rats, both sexes, whole blood | intravenous, 20 mg/kg single dose | – | AUC(0-t) | 18300 ± 2220 ng·h/mL |
| Cc1noc(C)c1Cn1cc(N2C(=O)CN(Cc3cccc(O[C@@H]4O[C@H](C(=O)O)[C@@H](O)[C@H](O)[C@H]4O)c3)C2=O)cn1 | – | Sprague-Dawley rat, male | oral, 100 mg/kg of parent drug, 12 h | – | plasma concentration | 324 ng/mL |
| CCC(C(=O)Nc1ccc(C(N)=O)c(F)c1)n1cc(OC)c(-c2cc(Cl)ccc2-n2cc(C(F)(F)F)nn2)cc1=O (stereo not drawn) | – | healthy male humans | 50 mg, required by protocol, with: omeprazole | – | procedure-related adverse events | 7.1% |
| C[C@]12C[C@H](c3ccc(S(C)(=O)=O)cc3)C3=C4CCC(=O)C=C4CC[C@H]3[C@@H]1CC[C@@]2(O)C(F)(F)C(F)(F)F | item: compound (parent) | healthy human volunteers, pooled plasma | oral, 5 mg daily, day 28, 0 h | – | plasma concentration | 11.7 ng/mL |
| COc1cccc(OC)c1-c1cc(C(=O)NC2(C(=O)O)C3CC4CC(C3)CC2C4)nn1-c1ccc(C(=O)N(C)CCCN(C)C(=O)[C@H](CCCCNC(=O)[C@H](CC(C)C)NC(=O)C2OC2C(=O)O)NC(=O)CN2CCN(CC(=O)[O-])CCN(CC(=O)[O-])CCN(CC(=O)[O-])CC2)cc1C(C)C.[177Lu+3] (mixture of isomers) | – | mouse, HT-29 xenograft | 24 h post injection, biodistribution | relative to: tumour over muscle uptake | tumour-to-muscle ratio | 20.7 |
| Cc1[nH]nc2c1N=C(c1ccccc1Cl)c1cnc(N3CCOCC3)cc1N2 | – | nude mouse HCC1806 xenograft, plasma | oral, 15 mg/kg once daily | – | Tmax | 30 min |

Repeated from above:
| Structure (SMILES) | test | system | setting | scale | quantity | result |
| --- | --- | --- | --- | --- | --- | --- |
| O=C(O)c1cccc(CN2Cc3cccc(n3)CN(Cc3cccc(C(=O)O)n3)Cc3cccc(n3)C2)n1 | differential pulse voltammetry | – | – | relative to: Ag/AgCl | Mn(II)/Mn(III) half-wave potential | 0.904 V and 0.648 V |
| CN(C(=O)C(C)(C)c1cc(C(F)(F)F)cc(C(F)(F)F)c1)c1cnc(N2C[C@H]3COCCN3C[C@H]2CO)cc1-c1ccc(F)cc1CO | – | pooled human liver microsomes | pH 7.4, substrate depletion | – | Km | 0.136 µM |
| Cc1n[nH]c(C)c1CCCOc1cc(C(=O)NCCCCC(NC(=O)CN2CCN(CC(=O)[O-])CCN(CC(=O)[O-])CCN(CC(=O)[O-])CC2)C(=O)NCC2CCC(C(=O)NC(Cc3ccc4ccccc4c3)C(=O)NCCCCC(NC(=O)NC(CCC(=O)O)C(=O)O)C(=O)O)CC2)ccc1F.[68Ga+3] (stereo not drawn) | – | BALB/c mouse, blood | intravenous | – | elimination half-life | 55 min |
| Cc1cc(C)nc(NC(=S)N2CCN(Cc3ccc(C(F)(F)F)cc3)CC2)c1 | – | plasma | intraperitoneal, 30 mg/kg | – | MRT(0-inf) | 144 min |
